Published values from different studies.
Parts stem from different laboratories: compare values within a part only. Positions count from the first letter of the parent shown.

Sample 1 — technique: protein-binding microarray; form: double-stranded DNA, one strand shown; medium: in vitro; concentration: 250 nM; setting: 60-bp whole probe; added: salmon DNA 0.4 mg/ml; reference: random background probes; direction: higher = stronger binding; quantity: log fluorescence; constant ends, left off below: GCCTAGCAC … GTCTTGATTCGCTTGACGCTGCTG
Target: Interferon regulatory factor 7, full length, phosphomimetic (IRF7, Homo sapiens, UniProt Q92985, residues 1-503, S101K/S471D/S472D/S475D/S476D/S477D/S483D/S484D/S487D)
Construct (chain): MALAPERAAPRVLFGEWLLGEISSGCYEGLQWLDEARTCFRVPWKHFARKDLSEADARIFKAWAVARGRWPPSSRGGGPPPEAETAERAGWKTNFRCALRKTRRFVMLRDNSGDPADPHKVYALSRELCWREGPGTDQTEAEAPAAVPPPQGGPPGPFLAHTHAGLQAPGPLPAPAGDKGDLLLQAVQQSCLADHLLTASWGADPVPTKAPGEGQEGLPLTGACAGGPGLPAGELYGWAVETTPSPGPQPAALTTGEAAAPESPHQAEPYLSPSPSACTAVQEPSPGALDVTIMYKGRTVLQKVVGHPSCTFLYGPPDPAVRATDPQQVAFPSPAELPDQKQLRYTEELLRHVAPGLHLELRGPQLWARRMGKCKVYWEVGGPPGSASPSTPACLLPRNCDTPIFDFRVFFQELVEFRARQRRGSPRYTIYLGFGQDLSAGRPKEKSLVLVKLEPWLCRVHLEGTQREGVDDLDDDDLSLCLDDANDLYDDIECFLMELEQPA
GACGGTTTCGGGTATTGGGACGTGCTA: 6.74 z-score
GACTATTTCAGTATCGAGACGTGCTAG: 1.08 z-score
TCAGTTTTCTGGTTCCCACTGTGCTAG: 1.65 z-score
TTAGGTATCGGACTGTGTTAGTGCTAG: 0.195 z-score
TTAGGACTGGACTTTCGGTCAGTGCTA: -0.426 z-score
TCACCTTGGAAGTATGACACTGTGCTA: -0.361 z-score
TCAGTTGTAGGTTTTCTGACTGTGCTA: -0.343 z-score
TTAGGTCTCGGTCTCGATTAGTGCTAG: 2.36 z-score
TTAGGACTCGGTATCGGTTAGTGCTAG: 3.04 z-score
AGATTTATCAAATGTGGGATTGTGCTA: -0.133 z-score
TTAGAACTGAGACTGTATTAGTGCTAG: -0.149 z-score
TTCTAAACCATTTTGGTTTTGTGCTAG: 0.175 z-score
GACGGTTTCCTTCTCCTGAGGTGCTAG: 2.58 z-score
TTCGGTATCCTTATCCTTTAGTGCTAG: 0.484 z-score
GACGCTCTCCTTATCCTGACGTGCTAG: 0.402 z-score
TTAGGTATCCTTATCCTTTGGTGCTAG: 0.269 z-score
TACTCTCCAGGGTTTCTCTTTGTGCTA: 2.91 z-score
AGTGTCATGTTTCTATGGGCGTGCTAG: 0.312 z-score
TTAGGACTGGTCTTTCGGTTAGTGCTA: -0.0479 z-score
GACGGTTTCGGTCTTGGGACGTGCTAG: 7.9 z-score

Sample 2 — technique: RNA Bind-n-Seq; form: RNA; medium: in vitro; concentration: 365 nM; reference: no-protein control; direction: higher = stronger binding; quantity: RBNS enrichment (R)
Target: RNA binding protein fox-1 homolog 2, RRM domain, GST-SBP tag (RBFOX2, Homo sapiens, UniProt O43251-10, residues 100-194)
Setting: natural RNA segment, single round, ends assumed
Target sequence (chain): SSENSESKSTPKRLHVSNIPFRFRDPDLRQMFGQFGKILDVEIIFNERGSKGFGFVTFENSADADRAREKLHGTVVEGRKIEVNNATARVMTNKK
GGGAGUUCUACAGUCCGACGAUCUAAAUCAAUUCUUCAACCCUUGGGUGUGUGAGUUUGAGGCAGGGUCAUUUGUGUGAUGUGUUUGGCCUUACCAAAGCAAAAGAGGGUGCAAGAAUGUGGGAGUAUGUCUGUGGAAUUCUCGGGUGCCAA: 2.39
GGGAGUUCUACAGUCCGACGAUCACACUGUCUUUGUACAUUUCAGAGCUUUGGUCUCCUGAGUGGGCCUCCUUUUCCCACUGUGCCAGGGAAGGUAGGUUUCUCUGGCUGACUGAGUACUGUGAGUGAGGCAAUGGAAUUCUCGGGUGCCAA: 0.381
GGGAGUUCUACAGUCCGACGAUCACCUUCAAUACUCAGAAAUGAUGGAUUCCUCCAAGGAGUCCUUUACUAGCCUAAACAUUCUCAAAUGUUUGAGAUUCAAGUGAAUGGAAGGAAAACCACAUGCCUUUAAAUGGAAUUCUCGGGUGCCAA: 0.389
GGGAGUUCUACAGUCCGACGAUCGAAGAAAUGGUGGUAAACUUUCUCUACCUAGAAGUAGUGGAAAUUUCAAGGUCAUCUUAAAAAAGAUGUGCGUUGUAUAUUUUAACUACAUUCUCUACACUCUAACAUUAUGGAAUUCUCGGGUGCCAA: 0.265
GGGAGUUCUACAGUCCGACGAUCAAAACCUUCUGUAAUAUAUUUAAAUAUAUAUUUUUAAGAGAGAUGCUACAUUGCCAAUGAUUUUAUAAAUAAUUUAAAAUUAAUUUACAAAUUUAUAGAUGCAAACCAAAUGGAAUUCUCGGGUGCCAA: 0.862
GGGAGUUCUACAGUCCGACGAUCUUCUCAUUUCCCAAUGCCUCUCUGUGGGAGAGCUCCAUGCCAGUUUUCACCACGCUCAGGCAAAUACUCUGCAGCUGUUAUUGGAUGGGCCAUUCCGAUCUGCCUUAUGAUGGAAUUCUCGGGUGCCAA: 0.908
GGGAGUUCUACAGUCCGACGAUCCUCUUCUGGUGUGUCUGAAGACAACAGUAGUGUACUCACGUAUAUGAAAUAAAUAAAUCUUAAAAAAAAAAAUAAGGUGUUAACAUGAGAAGAGGCGCUUCAAGCUCUUCUGGAAUUCUCGGGUGCCAA: 0.464
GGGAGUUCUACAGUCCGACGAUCAUGCCUGAUGAAAGCUUUGGGGCCCUCACAGAUGCACAACUCAAGUGCUGAUUCUAUCACUUAUCUACCAGCUCUGUGACCUUGAACAAGCCGCUUAACCUUGCUAAGCCUGGAAUUCUCGGGUGCCAA: 0.405
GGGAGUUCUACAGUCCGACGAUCUCCCUUCUUAAAGCCAACAGGCUCAGUUUACAAACCUGUGAGCUACUGUUGGCUGCUGCCCUCCUUCCCAGUGAAAGGUACAAAGCAAUAAGCAUCAUGCAUCCUCCCCUUGGAAUUCUCGGGUGCCAA: 2.35
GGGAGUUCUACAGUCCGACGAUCUAUUGAUUCUUCCUACCCAAGAGCAUGGAAUGUUCUUCCAUUUGUUUGUAUCCUCUUUUAUUUCCUUGAGCAGUAGCUUGUAGUUCUCCUUGAAGAGGUCCUUCACAUCCUGGAAUUCUCGGGUGCCAA: 3.57
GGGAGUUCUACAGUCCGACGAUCCAGGAGGCCGGCCCUGUUCUCUGUACUCAGCAUUUUGACAUCUCCUUUGAAGGCCAGGUAUAUGUGUACCAGUGCUCUUCAAAGGGAGAACCAUUAAAACCAACAUGGAAUGGAAUUCUCGGGUGCCAA: 1.22
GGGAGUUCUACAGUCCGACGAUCCUGCCUUCUGCGCCUCAGUCCCCCGUGCAUCCCUGGGCCUGGGUAUCACAUGCUCUCCAGGAAAGGGACGGAAUCAAUCCUGUGACCGAUGGGCUCGCAAGGAUGGGUGCUGGAAUUCUCGGGUGCCAA: 0.521

Sample 3 — target: CCND3, cyclin fold, Cln2 fusion (human); technique: yeast growth competition, sequencing; medium: yeast; setting: weak parent motif; reference: not given; direction: higher = stronger binding; quantity: normalised enrichment score
Parent: RBL1 docking peptide (human); GSAKRRLFGEDPP; partner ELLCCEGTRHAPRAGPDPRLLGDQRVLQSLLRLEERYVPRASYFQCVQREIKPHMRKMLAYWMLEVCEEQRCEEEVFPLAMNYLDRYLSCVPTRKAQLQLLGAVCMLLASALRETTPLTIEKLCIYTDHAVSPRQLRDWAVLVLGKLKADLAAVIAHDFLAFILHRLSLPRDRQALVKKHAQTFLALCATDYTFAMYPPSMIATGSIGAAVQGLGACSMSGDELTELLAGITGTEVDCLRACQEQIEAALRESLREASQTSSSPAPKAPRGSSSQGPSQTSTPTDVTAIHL
G9K: 0.137
G1R: 0.19
K4Q: 0.0891
K4D: 0.0538
F8L: 0.189
P13T: 0.129
G9L: 0.108
G1V: 0.193
E10N: 0.145
L7Q: 0.144
P12T: 0.205
D11Q: 0.0935
D11W: 0.137
K4G: 0.108
P13F: 0.0439
G1Y: 0.313
G9A: 0.217
R5T: 0.0182
L7R: 0.109

Sample 4 — technique: DHFR PCA, deep sequencing; medium: yeast; added: (+)-ABA 1.4 µM; reference: wild-type fitted maximum; direction: higher = stronger binding; quantity: relative binding score
Target: ABI1, truncated, D143A, DHFR fusion (Arabidopsis thaliana)
Setting: methotrexate growth selection, single substitutions
Parent: PYL1, truncated, DHFR fusion (Arabidopsis thaliana); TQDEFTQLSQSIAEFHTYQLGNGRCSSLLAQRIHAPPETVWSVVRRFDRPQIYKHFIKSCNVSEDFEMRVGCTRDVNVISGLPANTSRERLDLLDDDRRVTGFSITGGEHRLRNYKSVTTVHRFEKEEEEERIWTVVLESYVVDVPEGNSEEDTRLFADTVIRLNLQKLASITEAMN; partner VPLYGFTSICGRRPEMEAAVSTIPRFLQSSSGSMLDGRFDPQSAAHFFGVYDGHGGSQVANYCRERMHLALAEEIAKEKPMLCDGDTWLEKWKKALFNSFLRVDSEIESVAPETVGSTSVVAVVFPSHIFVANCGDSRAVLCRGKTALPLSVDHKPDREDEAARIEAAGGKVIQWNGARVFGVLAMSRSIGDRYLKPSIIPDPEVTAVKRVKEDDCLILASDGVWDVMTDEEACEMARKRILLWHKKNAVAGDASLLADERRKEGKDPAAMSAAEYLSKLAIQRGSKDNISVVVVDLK
S171H: 56.8%
S80D: 8%
S42P: 8.3%
D159E: 27.1%
S63H: 42%
R163S: 34.4%
G23W: 5.66%
T101C: 42.4%
V142K: -14.8%
L112D: -8.09%
R45P: 10.7%
D96C: -7.88%
F66K: 19.8%
G108Y: -21.6%
G108S: -5.94%
A13E: 59.8%
G102F: 0.145%
V161A: 16%
E129P: 76.4%

Single results of other studies
PhoQ, residues 284 288 289 292 302 303 ASSHFY — fold induction (PhoP, residues 12 14 15 18 19 NMSSL (Escherichia coli, UniProt P23836); Sort-seq, item: YFP reporter; E. coli; PhoQ-PhoP variant library, added: 10 µM Mg2+; reference: high Mg2+ state, higher = stronger signaling): 2.34

A few entries again (sample 3):
K4Q: 0.0891
E10N: 0.145
G9L: 0.108
G9K: 0.137
K4D: 0.0538
F8L: 0.189
G1Y: 0.313
L7Q: 0.144
